Measurements pooled from the literature.
Protocols differ between the studies behind these lines. Numbers after ± are the reported error.

Substance	organism	assay	system	setting	MIC
Cc1ccc(S(=O)(=O)N2C(=O)CSC2c2ccc([N+](=O)[O-])cc2)cc1 (centres unmarked)	Salmonella enterica	microbial growth, broth dilution	TYPHIMURIUM	–	64 µg/mL
Cc1[nH]c(C(=O)Nc2ccc(C(=O)O)cc2N2CCC[C@H](NC(=O)OC(C)(C)C)C2)c(Cl)c1Cl	Enterococcus faecium	microbial growth, broth dilution	ATCC35667	–	> 32 µg/mL
CCc1cc(=O)c2c(OCC(O)CNC(C)C)c3ccoc3c(OC)c2o1 (centres unmarked)	Staphylococcus epidermidis	broth microdilution	ATCC 35984	19 h, 35 °C	> 256 µg/mL
Clc1cccc(NCc2ccc(Oc3ccccn3)cc2)c1	Mycobacterium tuberculosis	–	H37Rv, GAST-Fe medium	2 weeks, pH 6.6	20 to 40 µM
NC[C@@H]1O[C@H](O[C@H]2[C@@H](O)[C@H](O[C@@H]3[C@@H](O)[C@H](N)C[C@H](N)[C@H]3O[C@H]3O[C@H](CO)[C@@H](O)[C@H](O)[C@H]3N)O[C@@H]2CO)[C@H](N)[C@@H](O)[C@@H]1O	Mycolicibacterium smegmatis	–	wild type	–	0.12 µg/mL
Clc1ccccc1NCc1ccc(Oc2ccccn2)cc1	Mycobacterium tuberculosis	–	H37Rv, 7H9/ADC/Tween medium	2 weeks	> 100 µM
COc1ccc2ncc(F)c(CCN3CCC([C@@H](O)[C@H](O)c4ccc5c(c4)OCCO5)CC3)c2n1	Salmonella enterica	microbial growth, broth dilution	ATCC14028 TYPHIMURIUM	–	64 µg/mL
CC1(C)SC2C(NC(=O)C(NC(=O)C3=C(O)C4(CC4)NC3=O)c3ccccc3)C(=O)N2C1C(=O)O (centres unmarked)	Escherichia coli	broth microdilution	BW25113, Mueller-Hinton broth	–	100 µg/mL
COc1ccc(NCc2ccc(Oc3ccccn3)cc2)cc1	Mycobacterium tuberculosis	–	H37Rv, GAST-Fe medium	2 weeks, pH 6.6	41 µM
CC(C)CC1NC(=O)C(C(=O)NC(C(=O)NC2C(=O)N3C2SC(C)(C)C3C(=O)O)c2ccccc2)=C1O (centres unmarked)	Escherichia coli	broth microdilution	BW25113, Mueller-Hinton broth	–	50 µg/mL
CCOC(=O)c1c(N)csc1-c1cn(-c2ccccc2)nc1-c1ccc(C)cc1	Bacillus subtilis	broth microdilution	clinical urinary isolate	compound gamma-irradiated 10 kGy	0.124 ± 0.4 µg/mL
pneumocandin K	Candida tropicalis	broth microdilution, resazurin	ATCC 750	24 h, 35 °C	0.2 µg/mL
CC(C)(C)OCC1NC(=O)C(C(=O)NC(C(=O)NC2C(=O)N3C2SC(C)(C)C3C(=O)O)c2ccccc2)=C1O (centres unmarked)	Escherichia coli	broth microdilution	BW25113, Mueller-Hinton broth	with: CCCP 50 µg/mL	25 µg/mL
Brc1ccc(NCc2ccc(Oc3ccccn3)cc2)cc1	Mycobacterium tuberculosis	–	H37Rv, 7H9/ADC/Tween medium	1 weeks	70 µM
Cc1ccc(S(=O)(=O)N2C(=O)CSC2c2ccc(Br)cc2)cc1 (centres unmarked)	Salmonella enterica	microbial growth, broth dilution	TYPHIMURIUM	–	16 µg/mL
O=C(N[C@H](CO)[C@H](O)c1ccc([N+](=O)[O-])cc1)C(Cl)Cl	Bacillus subtilis	microbial growth, broth dilution	–	–	< 52 µg/mL
Cc1ccccc1NCc1ccc(Oc2ccccn2)cc1	Mycobacterium tuberculosis	–	H37Rv, 7H9/ADC/Tween medium	2 weeks	> 100 µM
Cc1ccc(S(=O)(=O)N2C(=O)CSC2c2ccc(O)cc2)cc1 (centres unmarked)	Salmonella enterica	microbial growth, broth dilution	TYPHIMURIUM	–	32 µg/mL
chlorobiphenyl vancomycin	Enterococcus faecium	–	ATCC BAA-2317, VanA	16 h, 37 °C	2.5 µg/mL
pneumocandin J	Candida tropicalis	broth microdilution, resazurin	ATCC 750	24 h, 35 °C	3.2 µg/mL
Brc1cccc(NCc2ccc(Oc3ccccn3)cc2)c1	Mycobacterium tuberculosis	–	H37Rv, GAST-Fe medium	2 weeks, pH 6.6	20 to 40 µM
Cc1[nH]c(C(=O)Nc2ccc(C(=O)NCc3n[nH]c(=O)o3)cc2N2CCN(C(=O)OC(C)(C)C)CC2)c(Cl)c1Cl	Enterococcus faecium	microbial growth, broth dilution	ATCC35667	–	32 µg/mL
Cc1ccc(S(=O)(=O)N2C(=O)CSC2c2ccccc2[N+](=O)[O-])cc1 (centres unmarked)	Salmonella enterica	microbial growth, broth dilution	TYPHIMURIUM	–	64 µg/mL

Repeated from above:
Substance	organism	assay	system	setting	MIC
Cc1ccccc1NCc1ccc(Oc2ccccn2)cc1	Mycobacterium tuberculosis	–	H37Rv, 7H9/ADC/Tween medium	2 weeks	> 100 µM
Cc1ccc(S(=O)(=O)N2C(=O)CSC2c2ccc(O)cc2)cc1 (centres unmarked)	Salmonella enterica	microbial growth, broth dilution	TYPHIMURIUM	–	32 µg/mL
chlorobiphenyl vancomycin	Enterococcus faecium	–	ATCC BAA-2317, VanA	16 h, 37 °C	2.5 µg/mL
